Published values from different studies.
Compare with care: the assays were run in different laboratories. ± gives the spread as reported.
CDC48A: CDC48A 1-463 (Arabidopsis thaliana, UniProt P54609)
Sequence of UniProt P54609 (whole entry, looked up): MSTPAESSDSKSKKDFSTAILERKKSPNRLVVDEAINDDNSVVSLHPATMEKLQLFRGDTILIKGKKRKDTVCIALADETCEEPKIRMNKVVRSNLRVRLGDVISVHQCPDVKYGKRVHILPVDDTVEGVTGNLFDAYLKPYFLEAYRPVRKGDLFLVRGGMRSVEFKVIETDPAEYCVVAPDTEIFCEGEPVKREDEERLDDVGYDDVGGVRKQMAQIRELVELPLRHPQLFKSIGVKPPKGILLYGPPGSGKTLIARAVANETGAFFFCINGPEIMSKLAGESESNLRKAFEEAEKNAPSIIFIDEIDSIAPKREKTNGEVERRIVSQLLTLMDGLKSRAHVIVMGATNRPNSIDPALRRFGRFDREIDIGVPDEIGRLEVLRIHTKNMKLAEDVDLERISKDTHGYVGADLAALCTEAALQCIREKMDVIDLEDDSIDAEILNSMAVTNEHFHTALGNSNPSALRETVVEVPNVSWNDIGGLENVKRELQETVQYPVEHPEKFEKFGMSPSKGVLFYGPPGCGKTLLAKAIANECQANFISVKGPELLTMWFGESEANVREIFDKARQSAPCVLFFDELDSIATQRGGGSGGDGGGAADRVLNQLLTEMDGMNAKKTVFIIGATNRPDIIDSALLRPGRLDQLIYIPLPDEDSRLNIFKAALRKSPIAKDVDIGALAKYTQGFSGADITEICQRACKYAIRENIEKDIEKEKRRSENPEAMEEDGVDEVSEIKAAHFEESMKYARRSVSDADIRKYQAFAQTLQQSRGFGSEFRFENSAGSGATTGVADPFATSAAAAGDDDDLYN
TNFSF4: TNFSF4 51-183 (Homo sapiens, UniProt P23510)
Sequence of UniProt P23510 (whole entry, looked up): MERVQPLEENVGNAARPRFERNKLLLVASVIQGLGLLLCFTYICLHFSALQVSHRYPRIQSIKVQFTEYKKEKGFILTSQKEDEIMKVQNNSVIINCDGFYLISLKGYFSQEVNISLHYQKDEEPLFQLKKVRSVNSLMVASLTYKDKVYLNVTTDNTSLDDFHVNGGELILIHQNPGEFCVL
B1: PIK3R1 1-79 (Homo sapiens, UniProt P27986); chain MSAEGYQYRALYDYKKEREEDIDLHLGDILTVNKGSLVALGFSDGQEARPEEIGWLNGYNETTGERGDFPGTYVEYIGR
B2: DTNA 458-564 (Homo sapiens, UniProt Q9Y4J8-1); sequence looked up; chain SAPDISFTIDANKQQRQLIAELENKNREILQEIQRLRLEHEQASQPTPEKAQQNPTLLAELRLLRQRKDELEQRMSALQESRRELMVQLEGLMKLLKTQGAGSPRSS
B3: EPYC (Homo sapiens, UniProt Q99645); sequence looked up; chain APTLESINYDSETYDATLEDLDNLYNYENIPVDKVEIEIATVMPSGNRELLTPPPQPEKAQEEEEEEESTPRLIDGSSPQEPEFTGVLGPHTNEDFPTCLLCTCISTTVYCDDHELDAIPPLPKNTAYFYSRFNRIKKINKNDFASLSDLKRIDLTSNLISEIDEDAFRKLPQLRELVLRDNKIRQLPELPTTLTFIDISNNRLGRKGIKQEAFKDMYDLHHLYLTDNNLDHIPLPLPENLRALHLQNNNILEMHEDTFCNVKNLTYIRKALEDIRLDGNPINLSKTPQAYMCLPRLPVGSLV
B4: TNFRSF4 29-170 W86A (Homo sapiens, UniProt P43489); sequence looked up; chain LHCVGDTYPSNDRCCHECRPGNGMVSRCSRSQNTVCRPCGPGFYNDVVSSKPCKPCTACNLRSGSERKQLCTATQDTVCRCRAGTQPLDSYKPGVDCAPCPPGHFSPGDNQACKPWTNCTLAGKHTLQPASNSSDAICEDRD
B5: RelA/NFKB1 190-321 F309A; chain 1 NTAELKICRVNRNSGSCLGGDEIFLLCDKVQKEDIEVYFTGPGWEARGSFSQADVHRQVAIVFRTPPYADPSLQAPVRVSMQLRRPSDRELSEPMEFQYLPDTDDRHRIEEKRKRTYETAKSIMKKSPFNGP; chain 2 LKIVRMDRTAGCVTGGEEIYLLCDKVQKDDIQIRFYEEEENGGVWEGFGDFSPTDVHRQFAIVFKTPKYKDVNITKPASVFVQLRRKSDLETSEPKPFLYYPE
B6: PUX7 171-468 (Arabidopsis thaliana, UniProt Q94JZ8); chain LASLYRPPFHLMFQGSFEQAKTTSSSQDKWLLVNLQSTTEFSSHMLNRDTWANDAVSQTIKANFIFWQVYDDTTEGRKVCTYYKLESIPVVLVIDPTTGQRMRMWTGMVDPENLLEDLVPFMDGGPREHFASLSKKRPRGSFSLTPHSKPKEDVAKDEEEEELQRALAASLEDNNMKESSDDQSTIIPEEVAVEAVTSAVLPTFPPLPEEPKGGDRSLQCRVGIRLPNGQRLQRNFLKTDTIQLLWSFCYSQLEESERKKPLKLTQAIPGESKTLEYESNLTLEQSGVANSMISATWE
B7: TNFRSF4 29-170 D124A (Homo sapiens, UniProt P43489); sequence looked up; chain LHCVGDTYPSNDRCCHECRPGNGMVSRCSRSQNTVCRPCGPGFYNDVVSSKPCKPCTWCNLRSGSERKQLCTATQDTVCRCRAGTQPLDSYKPGVACAPCPPGHFSPGDNQACKPWTNCTLAGKHTLQPASNSSDAICEDRD
B8: HCK 78-138 (Homo sapiens, UniProt P08631); chain SEDIIVVALYDYEAIHHEDLSFQKGDQMVVLEESGEWWKARSLATRKEGYIPSNYVARVDS
B9: PUX9 390-469 (Arabidopsis thaliana, UniProt Q4V3D3); chain AITLLVRMPDSSRHGRRFLKSDKLKYLFDFIDAAGLVKPGTYRVVRPYPRRAFSIQDGALTFEELSLTNKQEALFLELLV
Sequence of UniProt P25963 (whole entry, unmodified, looked up): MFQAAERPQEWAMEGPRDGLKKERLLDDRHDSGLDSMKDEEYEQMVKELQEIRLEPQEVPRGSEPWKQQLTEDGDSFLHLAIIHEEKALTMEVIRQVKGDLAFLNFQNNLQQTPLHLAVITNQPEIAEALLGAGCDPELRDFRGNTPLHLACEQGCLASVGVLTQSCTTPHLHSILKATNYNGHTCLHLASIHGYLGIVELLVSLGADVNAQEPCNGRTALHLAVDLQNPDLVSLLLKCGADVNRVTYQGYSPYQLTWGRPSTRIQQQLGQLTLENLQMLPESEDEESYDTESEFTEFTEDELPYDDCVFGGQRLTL
Sequence of UniProt Q7Y175 (whole entry, unmodified, looked up): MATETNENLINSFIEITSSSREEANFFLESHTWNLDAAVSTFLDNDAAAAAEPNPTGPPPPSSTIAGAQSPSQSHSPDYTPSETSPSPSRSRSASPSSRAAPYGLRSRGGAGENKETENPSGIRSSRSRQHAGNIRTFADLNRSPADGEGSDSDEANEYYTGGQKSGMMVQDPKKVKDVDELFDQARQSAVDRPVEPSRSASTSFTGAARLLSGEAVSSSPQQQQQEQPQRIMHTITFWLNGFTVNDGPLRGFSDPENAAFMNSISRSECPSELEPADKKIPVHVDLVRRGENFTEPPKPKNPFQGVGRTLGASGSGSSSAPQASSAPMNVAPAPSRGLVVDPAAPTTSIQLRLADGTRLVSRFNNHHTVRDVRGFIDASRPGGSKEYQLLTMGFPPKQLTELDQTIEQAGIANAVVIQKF
Sequence of UniProt F4IXN6 (whole entry, unmodified, looked up): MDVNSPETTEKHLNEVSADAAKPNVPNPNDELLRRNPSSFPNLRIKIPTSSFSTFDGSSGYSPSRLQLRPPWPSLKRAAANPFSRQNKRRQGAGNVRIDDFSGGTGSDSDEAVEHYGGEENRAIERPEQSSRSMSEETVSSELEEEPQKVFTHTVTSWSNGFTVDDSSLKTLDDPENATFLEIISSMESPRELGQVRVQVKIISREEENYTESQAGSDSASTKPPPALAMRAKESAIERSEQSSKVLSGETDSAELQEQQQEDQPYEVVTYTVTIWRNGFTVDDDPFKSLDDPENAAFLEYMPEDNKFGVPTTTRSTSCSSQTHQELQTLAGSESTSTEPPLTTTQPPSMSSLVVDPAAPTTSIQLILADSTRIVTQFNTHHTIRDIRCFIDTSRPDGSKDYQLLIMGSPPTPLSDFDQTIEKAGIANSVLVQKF
Sequence of UniProt Q06671 (whole entry, unmodified, looked up): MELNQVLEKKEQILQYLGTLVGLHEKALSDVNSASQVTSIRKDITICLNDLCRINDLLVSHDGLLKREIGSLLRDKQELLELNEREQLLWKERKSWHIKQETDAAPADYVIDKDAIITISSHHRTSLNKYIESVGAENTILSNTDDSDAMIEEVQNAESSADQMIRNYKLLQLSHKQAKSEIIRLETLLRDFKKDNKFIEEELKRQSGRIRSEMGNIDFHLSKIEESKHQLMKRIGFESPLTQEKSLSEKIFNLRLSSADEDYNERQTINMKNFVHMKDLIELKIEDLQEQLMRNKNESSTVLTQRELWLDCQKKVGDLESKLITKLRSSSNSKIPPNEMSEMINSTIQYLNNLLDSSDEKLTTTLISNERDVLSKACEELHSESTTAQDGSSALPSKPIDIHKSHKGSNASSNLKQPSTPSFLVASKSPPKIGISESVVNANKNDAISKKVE
Sequence of UniProt P06241 (whole entry, unmodified, looked up): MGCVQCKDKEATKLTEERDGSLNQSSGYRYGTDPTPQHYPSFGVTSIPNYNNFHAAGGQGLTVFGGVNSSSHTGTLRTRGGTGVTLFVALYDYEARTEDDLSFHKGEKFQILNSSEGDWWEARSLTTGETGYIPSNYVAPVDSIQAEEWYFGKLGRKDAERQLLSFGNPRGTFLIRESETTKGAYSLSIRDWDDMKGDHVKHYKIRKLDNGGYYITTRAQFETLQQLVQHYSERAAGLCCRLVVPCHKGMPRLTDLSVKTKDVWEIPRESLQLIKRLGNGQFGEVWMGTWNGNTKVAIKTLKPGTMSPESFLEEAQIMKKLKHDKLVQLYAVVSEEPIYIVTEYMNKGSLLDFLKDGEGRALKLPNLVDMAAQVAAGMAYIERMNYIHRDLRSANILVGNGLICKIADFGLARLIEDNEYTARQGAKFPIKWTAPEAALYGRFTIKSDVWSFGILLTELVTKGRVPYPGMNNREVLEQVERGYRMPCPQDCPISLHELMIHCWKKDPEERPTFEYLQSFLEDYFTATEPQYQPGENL
Sequence of UniProt Q12142 (whole entry, unmodified, looked up): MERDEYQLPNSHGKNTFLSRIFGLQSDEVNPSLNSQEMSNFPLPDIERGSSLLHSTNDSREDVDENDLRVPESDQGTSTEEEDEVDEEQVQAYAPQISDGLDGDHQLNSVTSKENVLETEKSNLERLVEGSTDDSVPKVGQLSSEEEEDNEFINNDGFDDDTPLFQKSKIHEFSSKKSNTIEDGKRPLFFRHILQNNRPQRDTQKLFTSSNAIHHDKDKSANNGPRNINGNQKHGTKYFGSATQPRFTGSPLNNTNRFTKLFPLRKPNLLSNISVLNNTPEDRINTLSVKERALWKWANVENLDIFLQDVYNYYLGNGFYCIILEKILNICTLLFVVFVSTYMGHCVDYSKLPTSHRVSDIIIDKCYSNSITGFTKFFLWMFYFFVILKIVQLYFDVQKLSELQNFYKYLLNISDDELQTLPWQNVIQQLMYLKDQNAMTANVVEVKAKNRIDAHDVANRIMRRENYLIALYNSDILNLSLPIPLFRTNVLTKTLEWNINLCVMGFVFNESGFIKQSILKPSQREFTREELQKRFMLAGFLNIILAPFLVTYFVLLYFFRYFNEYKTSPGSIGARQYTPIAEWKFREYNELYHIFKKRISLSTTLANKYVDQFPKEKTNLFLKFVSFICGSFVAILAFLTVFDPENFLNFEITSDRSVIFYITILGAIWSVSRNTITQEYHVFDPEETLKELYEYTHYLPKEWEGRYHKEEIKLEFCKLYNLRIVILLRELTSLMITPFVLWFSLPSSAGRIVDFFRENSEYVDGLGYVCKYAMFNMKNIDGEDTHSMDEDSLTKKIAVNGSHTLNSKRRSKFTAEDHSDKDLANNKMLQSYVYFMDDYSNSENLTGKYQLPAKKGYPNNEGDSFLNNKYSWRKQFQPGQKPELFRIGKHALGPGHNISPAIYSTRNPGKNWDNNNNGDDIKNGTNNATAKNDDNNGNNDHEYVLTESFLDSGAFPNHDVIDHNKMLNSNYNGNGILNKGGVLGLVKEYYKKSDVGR

Molecule | target or system | test | system | setting | how to read | quantity | result
PUX5 (Arabidopsis thaliana, UniProt Q7Y175) | CDC48A | ITC |  |  |  | ΔH | -40.2 ± 0.8 kJ/mol
GSGAGQITKV | human SCRIB PDZ3-4 tandem (MBP fusion) | automated holdup | peptide, purified PDZ protein | concentration not given, unit not given | reference: biotin control resin, higher = stronger binding | binding intensity | -0.14
QEDIIRNIARHLAQVGDSMDRSIPPG (BID 79-104 (Homo sapiens, UniProt P55957); sequence looked up) | BCL2L1 1-208 N52D/N66D (Homo sapiens, UniProt Q07817-1) | ITC | peptide |  |  | ΔH | -20.4 ± 0.7 kJ/mol
PUX7 (Arabidopsis thaliana, UniProt Q94JZ8) | CDC48A | ITC |  |  |  | ΔH | 15.4 ± 0.3 kJ/mol
LPDTDDRHRIEEKRKRTYETFKSIMKKSPANGP (Rela 289-321 F318A (Mus musculus, UniProt Q04207); sequence looked up) | NFKBIA 67-206 (Homo sapiens, UniProt P25963) | ITC | peptide |  |  | ΔH | -10.46 ± 0.0418 kJ/mol
B1 (PIK3R1 1-79) | PIK3R1 80-724 (Homo sapiens, UniProt P27986) | ITC |  |  |  | ΔH | -16.2 ± 3.1 kJ/mol
DDRHRIEEKRKRTYETFKSIMKKSPFNGP (Rela 293-321 (Mus musculus, UniProt Q04207); sequence looked up) | NFKBIA 67-206 (Homo sapiens, UniProt P25963) | ITC | peptide | NaCl 150 mM |  | ΔH | -18 ± 0.837 kJ/mol
B2 (DTNA 458-564) | DMD 3365-3685 (Homo sapiens, UniProt P11532-1) | ITC |  | 25 °C |  | ΔH | -41.6 kJ/mol
B3 (EPYC) | FLT1 27-758 (Homo sapiens, UniProt P17948) | ITC |  |  |  | ΔH | -5670 ± 504 kJ/mol
KISPPTPKPRPPRPLPVAPGS (PIK3R1 proline-rich region 1 (Homo sapiens)) | FYN 72-142 (Homo sapiens, UniProt P06241) | ITC | peptide |  |  | ΔH | -29.4 ± 1.1 kJ/mol
B4 (TNFRSF4 29-170 W86A) | TNFSF4 | SPR |  | van't Hoff |  | ΔH | -77.4 kJ/mol
B5 (RelA/NFKB1 190-321 F309A) | NFKBIA 67-287 (Homo sapiens, UniProt P25963) | ITC |  |  |  | ΔH | -33.5 kJ/mol
Atg23 full-length, dimer (yeast, UniProt Q06671) | ATG9 864-997 (Saccharomyces cerevisiae, UniProt Q12142) | ITC |  | pH 8, 20 °C, NaCl 150 mM, independent binding model, with: TCEP 0.2 mM |  | ΔH | -13.7 kJ/mol
B6 (PUX7 171-468) | CDC48A | ITC |  |  |  | ΔH | 19.2 ± 0.5 kJ/mol
colistin | Escherichia coli | broth microdilution | clinical isolate RKI-No_513/16 |  |  | MIC | ≤ 0.5 mg/L
B7 (TNFRSF4 29-170 D124A) | TNFSF4 | SPR |  | van't Hoff |  | ΔH | -49 kJ/mol
NPDALPETLV | human MAGI1-3/6 PDZ construct (MBP fusion) | surface plasmon resonance | peptide | concentration not given | higher = stronger binding | normalised SPR binding response | 62.4 normalised RU
LPDTDDRHRIEEKRKRTYETFKSIMKKSPFNGP (Rela 289-321 (Mus musculus, UniProt Q04207); sequence looked up) | NFKBIA 67-206 (Homo sapiens, UniProt P25963) | ITC | peptide | NaCl 150 mM |  | ΔH | -15.1 ± 1.67 kJ/mol
PUX6 (Arabidopsis thaliana, UniProt F4IXN6) | CDC48A | ITC |  |  |  | ΔH | 11.1 ± 0.5 kJ/mol
B8 (HCK 78-138) | PIK3R1 80-333 (Homo sapiens, UniProt P27986) | ITC |  |  |  | ΔH | -36.9 ± 1 kJ/mol
PUX5 fragment (Arabidopsis thaliana) | CDC48A | ITC |  |  |  | ΔH | 4.6 ± 0.1 kJ/mol
LPDTDDRHRIEEKRKRTAETFKSIMKKSPFNGP (Rela 289-321 Y306A (Mus musculus, UniProt Q04207); sequence looked up) | NFKBIA 67-206 (Homo sapiens, UniProt P25963) | ITC | peptide |  |  | ΔH | -9.623 ± 0.0418 kJ/mol
B9 (PUX9 390-469) | CDC48A | ITC |  |  |  | ΔH | 5 ± 0.4 kJ/mol
BRCA1 coiled-coil domain I1405V (Homo sapiens) | PALB2 1-56 (Homo sapiens, UniProt Q86YC2) | ITC |  |  |  | ΔH | -10 ± 1.67 kJ/mol

Repeated from above:
Molecule | target or system | test | system | setting | how to read | quantity | result
LPDTDDRHRIEEKRKRTYETFKSIMKKSPANGP (Rela 289-321 F318A (Mus musculus, UniProt Q04207); sequence looked up) | NFKBIA 67-206 (Homo sapiens, UniProt P25963) | ITC | peptide |  |  | ΔH | -10.46 ± 0.0418 kJ/mol
PUX6 (Arabidopsis thaliana, UniProt F4IXN6) | CDC48A | ITC |  |  |  | ΔH | 11.1 ± 0.5 kJ/mol
